Published values from different studies.
Every numbered part comes from another study and shows a few of its results, in no order. Values joined by “and” are separate records of one study, mostly repeats; a detail may differ.
UniProt P00519, sequence (whole entry, unmodified, looked up): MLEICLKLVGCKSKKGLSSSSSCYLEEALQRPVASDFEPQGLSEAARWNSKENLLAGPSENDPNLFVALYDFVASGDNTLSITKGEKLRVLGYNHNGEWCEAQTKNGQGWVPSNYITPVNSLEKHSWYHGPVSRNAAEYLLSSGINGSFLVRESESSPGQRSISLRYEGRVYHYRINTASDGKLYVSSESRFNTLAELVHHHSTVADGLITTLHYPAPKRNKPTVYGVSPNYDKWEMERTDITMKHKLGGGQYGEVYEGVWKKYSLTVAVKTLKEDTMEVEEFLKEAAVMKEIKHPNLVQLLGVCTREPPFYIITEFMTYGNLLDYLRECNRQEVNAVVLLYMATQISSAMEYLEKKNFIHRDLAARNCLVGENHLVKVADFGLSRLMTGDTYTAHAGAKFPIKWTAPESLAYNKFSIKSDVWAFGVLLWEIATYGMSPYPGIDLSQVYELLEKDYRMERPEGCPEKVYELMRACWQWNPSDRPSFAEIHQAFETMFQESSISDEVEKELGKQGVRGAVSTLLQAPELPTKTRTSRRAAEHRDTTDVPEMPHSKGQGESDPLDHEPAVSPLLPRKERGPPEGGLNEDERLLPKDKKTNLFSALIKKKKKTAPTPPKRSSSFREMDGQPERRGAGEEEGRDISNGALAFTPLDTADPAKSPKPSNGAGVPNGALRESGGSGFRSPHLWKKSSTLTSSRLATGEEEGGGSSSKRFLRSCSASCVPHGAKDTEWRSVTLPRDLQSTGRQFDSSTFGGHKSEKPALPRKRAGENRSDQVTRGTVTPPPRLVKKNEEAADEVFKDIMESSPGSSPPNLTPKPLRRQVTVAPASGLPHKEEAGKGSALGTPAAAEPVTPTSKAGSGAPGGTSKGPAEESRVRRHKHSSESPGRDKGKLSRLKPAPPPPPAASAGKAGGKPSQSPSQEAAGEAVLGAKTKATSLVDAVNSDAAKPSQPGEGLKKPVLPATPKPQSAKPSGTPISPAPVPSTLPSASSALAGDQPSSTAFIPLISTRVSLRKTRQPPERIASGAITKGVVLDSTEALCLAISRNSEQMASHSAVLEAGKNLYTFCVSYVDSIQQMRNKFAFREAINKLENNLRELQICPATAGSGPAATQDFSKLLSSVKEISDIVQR
UniProt O94921, sequence (whole entry, looked up): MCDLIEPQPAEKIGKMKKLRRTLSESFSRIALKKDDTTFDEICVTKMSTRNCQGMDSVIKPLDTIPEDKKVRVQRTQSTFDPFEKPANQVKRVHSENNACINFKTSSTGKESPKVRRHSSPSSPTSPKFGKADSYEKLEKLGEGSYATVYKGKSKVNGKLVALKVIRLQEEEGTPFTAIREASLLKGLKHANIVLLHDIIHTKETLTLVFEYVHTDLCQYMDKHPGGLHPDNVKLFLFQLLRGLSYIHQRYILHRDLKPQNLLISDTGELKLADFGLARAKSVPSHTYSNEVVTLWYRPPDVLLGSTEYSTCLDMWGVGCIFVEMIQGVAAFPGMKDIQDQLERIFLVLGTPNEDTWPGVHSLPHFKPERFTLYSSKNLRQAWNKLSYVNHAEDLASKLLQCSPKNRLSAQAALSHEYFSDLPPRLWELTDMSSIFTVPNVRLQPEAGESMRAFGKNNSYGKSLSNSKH
UniProt P08173, sequence (whole entry, looked up): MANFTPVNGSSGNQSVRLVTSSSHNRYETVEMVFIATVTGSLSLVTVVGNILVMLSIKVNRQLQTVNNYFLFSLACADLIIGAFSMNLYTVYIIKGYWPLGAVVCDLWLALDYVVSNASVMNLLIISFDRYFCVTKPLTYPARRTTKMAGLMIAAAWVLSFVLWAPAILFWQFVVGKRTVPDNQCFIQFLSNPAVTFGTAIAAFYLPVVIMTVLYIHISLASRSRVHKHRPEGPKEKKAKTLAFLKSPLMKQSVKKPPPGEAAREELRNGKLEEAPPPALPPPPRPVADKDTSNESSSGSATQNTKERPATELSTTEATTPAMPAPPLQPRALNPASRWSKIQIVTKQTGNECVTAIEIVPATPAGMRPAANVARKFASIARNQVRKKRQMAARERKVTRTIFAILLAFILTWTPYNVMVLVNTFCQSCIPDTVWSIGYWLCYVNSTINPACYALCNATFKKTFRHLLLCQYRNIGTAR
UniProt P35367, sequence (whole entry, looked up): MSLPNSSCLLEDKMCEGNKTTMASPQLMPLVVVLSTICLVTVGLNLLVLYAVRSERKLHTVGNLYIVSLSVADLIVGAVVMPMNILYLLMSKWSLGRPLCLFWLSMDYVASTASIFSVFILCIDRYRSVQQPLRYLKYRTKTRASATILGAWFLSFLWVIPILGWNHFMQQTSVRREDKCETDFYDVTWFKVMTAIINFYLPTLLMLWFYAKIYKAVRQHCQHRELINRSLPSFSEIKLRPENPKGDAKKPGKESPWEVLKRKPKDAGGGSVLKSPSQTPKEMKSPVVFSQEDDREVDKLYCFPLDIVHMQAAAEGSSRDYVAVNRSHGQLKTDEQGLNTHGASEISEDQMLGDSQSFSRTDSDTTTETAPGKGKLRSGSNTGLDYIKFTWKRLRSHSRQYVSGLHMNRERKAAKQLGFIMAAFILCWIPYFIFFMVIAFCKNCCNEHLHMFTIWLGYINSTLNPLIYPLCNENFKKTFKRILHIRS
UniProt P25021, sequence (whole entry, looked up): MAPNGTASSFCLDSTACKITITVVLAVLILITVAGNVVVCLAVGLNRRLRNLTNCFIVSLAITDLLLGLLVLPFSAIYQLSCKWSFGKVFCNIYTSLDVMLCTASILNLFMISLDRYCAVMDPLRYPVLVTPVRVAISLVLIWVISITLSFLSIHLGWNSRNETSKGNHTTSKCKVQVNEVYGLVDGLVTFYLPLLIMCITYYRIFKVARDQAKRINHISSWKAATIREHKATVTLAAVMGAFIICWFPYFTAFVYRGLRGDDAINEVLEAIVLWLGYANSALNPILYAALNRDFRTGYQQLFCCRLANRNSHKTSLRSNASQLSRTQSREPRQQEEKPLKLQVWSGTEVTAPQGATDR
UniProt P18825, sequence (whole entry, looked up): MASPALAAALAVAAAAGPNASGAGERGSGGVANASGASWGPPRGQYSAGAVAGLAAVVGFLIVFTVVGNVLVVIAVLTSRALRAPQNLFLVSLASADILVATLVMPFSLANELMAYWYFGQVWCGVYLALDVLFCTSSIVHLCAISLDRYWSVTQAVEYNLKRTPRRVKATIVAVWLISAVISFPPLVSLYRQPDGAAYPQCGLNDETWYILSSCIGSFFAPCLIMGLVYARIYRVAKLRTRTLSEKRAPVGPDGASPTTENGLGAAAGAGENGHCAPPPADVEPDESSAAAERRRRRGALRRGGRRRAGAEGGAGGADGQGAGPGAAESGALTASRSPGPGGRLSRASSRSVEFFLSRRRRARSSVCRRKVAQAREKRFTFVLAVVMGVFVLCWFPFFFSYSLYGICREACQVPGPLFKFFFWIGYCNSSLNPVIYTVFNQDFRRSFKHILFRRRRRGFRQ
UniProt P13945, sequence (whole entry, looked up): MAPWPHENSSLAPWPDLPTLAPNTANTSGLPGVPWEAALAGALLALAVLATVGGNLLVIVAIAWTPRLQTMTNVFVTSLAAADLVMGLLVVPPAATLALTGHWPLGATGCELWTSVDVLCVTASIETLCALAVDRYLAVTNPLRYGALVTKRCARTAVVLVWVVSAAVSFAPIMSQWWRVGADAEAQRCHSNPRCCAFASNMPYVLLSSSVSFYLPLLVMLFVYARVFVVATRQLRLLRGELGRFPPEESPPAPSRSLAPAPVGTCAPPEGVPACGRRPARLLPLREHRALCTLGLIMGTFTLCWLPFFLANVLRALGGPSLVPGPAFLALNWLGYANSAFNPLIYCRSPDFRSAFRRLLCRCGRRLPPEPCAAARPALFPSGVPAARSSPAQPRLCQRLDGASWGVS

Series 1 — read-out: binding; method: radioligand binding; tested at: 10 µM
SMILES: CCCCN(CCCC)C(=O)CN1C[C@@H](c2cc(OC)c3c(c2)OCO3)[C@H](C(=O)O)[C@H]1CC(C)(C)CCC
target	inhibition
HRH4 (Homo sapiens, UniProt Q9H3N8)	4.1%
CHRM4 (Homo sapiens, UniProt P08173)	-19.2%
ADRA2C (Homo sapiens, UniProt P18825)	56.1%
DRD1 (Homo sapiens, UniProt P21728)	16.6%
ADRB3 (Homo sapiens, UniProt P13945)	28.4%
HRH1 (Homo sapiens, UniProt P35367)	47.4%
HTR7 (Homo sapiens, UniProt P34969)	-11.7%
CHRM2 (Homo sapiens, UniProt P08172)	3.71%
ADRA2B (Homo sapiens, UniProt P18089)	50%
ADRA1D (Homo sapiens, UniProt P25100)	6.55%
HRH2 (Homo sapiens, UniProt P25021)	8.46%
ADRA1B (Homo sapiens, UniProt P35368)	6.5%

Series 2 — method: phase 2a trial
SMILES: CC(C)n1cnc(-c2ccc(F)cc2)c1-c1ncc(C(=O)Nc2ccc(N3CCN(C)CC3)cc2)[nH]1
species	route	dose	setting	patients with TEAE [%]
patients with idiopathic pulmonary fibrosis	–	60 mg once daily	free thyroxine decreased, grade 4	0
idiopathic pulmonary fibrosis patients	oral	60 mg once daily	disc protrusion, grade 3	0
patients with idiopathic pulmonary fibrosis	–	30 mg once daily	eye swelling, grade 4	0
idiopathic pulmonary fibrosis patients	oral	30 mg once daily	GLDH increased, grade 5	0

Series 3 — organism: Cryptosporidium parvum; method: time-kill; cell line: HCT-8; strain: nanoluciferase-expressing; baseline: DMSO control
SMILES: CN(C(=O)c1ccn2ncc(-c3ccc(C(N)=O)cc3)c2c1)c1ccc(C#N)cn1
tested at	time	luminescence remaining
6.667 µM	4 h	107% and 113%
6.667 µM	72 h	15.4% and 11.8%
2.222 µM	8 h	105% and 108%

Series 4 — tested at: 1 µM
SMILES: COc1ccc2[nH]c3c4[nH]c5ccc(OC)cc5c4c4c(c3c2c1)C(=O)NC4=O
target	read-out	method	remaining binding
EGFR (Homo sapiens, UniProt P00533, del746-750)	binding	–	20%
ABL1 (Homo sapiens, UniProt P00519, H396P)	–	–	34% and 65%
CDK14 (Homo sapiens, UniProt O94921)	binding	competition with immobilised ligand	85%

Series 5 — SMILES: CCOc1ccc(Nc2c3c(nc4ccccc24)CCC3)cc1; organism: Leishmania donovani; read-out: parasite killing; strain: DD8
sample	tested at	time	inhibition
intracellular amastigotes	40 µM	24 h	100%
promastigotes	1.66 µM	96 h	48% and 42% and 40%
intracellular amastigotes	0.8 µM	48 h	36% and 39% and 33%
promastigotes	66.66 µM	48 h	100%

Some of these lines once more (series 4):
target	read-out	method	remaining binding
CDK14 (Homo sapiens, UniProt O94921)	binding	competition with immobilised ligand	85%
EGFR (Homo sapiens, UniProt P00533, del746-750)	binding	–	20%
ABL1 (Homo sapiens, UniProt P00519, H396P)	–	–	34% and 65%
